# Assay results gathered from unrelated publications.
# Several values in a cell are separate wells, animals, samples, runs or records. Numbers after ± are the reported error.
# uncharacterized protein: uncharacterized protein (Bradysia odoriphaga, UniProt A0A2S0X9G4)
# Alpha-1-acid glycoprotein 2: Alpha-1-acid glycoprotein 2 (Homo sapiens, UniProt P19652)
# UniProt P19652, sequence (whole entry, looked up): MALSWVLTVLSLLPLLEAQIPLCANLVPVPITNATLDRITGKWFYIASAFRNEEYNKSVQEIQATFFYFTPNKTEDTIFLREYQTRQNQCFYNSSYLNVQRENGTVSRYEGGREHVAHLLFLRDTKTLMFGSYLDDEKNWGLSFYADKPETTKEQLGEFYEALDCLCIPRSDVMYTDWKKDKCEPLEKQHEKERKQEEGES
# SIGMAR1: Sigma non-opioid intracellular receptor 1 (SIGMAR1, Cavia porcellus, UniProt Q60492)
# UniProt Q60492, sequence (whole entry, looked up): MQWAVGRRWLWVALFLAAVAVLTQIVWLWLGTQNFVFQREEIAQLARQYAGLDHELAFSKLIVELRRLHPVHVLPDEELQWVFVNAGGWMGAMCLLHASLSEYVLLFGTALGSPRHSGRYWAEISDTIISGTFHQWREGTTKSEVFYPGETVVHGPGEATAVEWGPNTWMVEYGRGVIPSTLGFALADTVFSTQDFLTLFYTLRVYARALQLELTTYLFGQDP
# TMEM97: Sigma intracellular receptor 2 (TMEM97, Homo sapiens, UniProt Q5BJF2)
# UniProt Q5BJF2, sequence (whole entry, looked up): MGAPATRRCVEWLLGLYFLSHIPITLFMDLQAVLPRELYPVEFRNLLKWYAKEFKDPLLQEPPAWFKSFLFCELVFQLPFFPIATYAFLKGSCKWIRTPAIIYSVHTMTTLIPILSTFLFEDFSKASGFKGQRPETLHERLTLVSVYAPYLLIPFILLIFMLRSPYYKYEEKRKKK
# MAPT PSP brain aggregates: Microtubule-associated protein tau, PSP brain aggregates (MAPT, Homo sapiens, UniProt P10636)
# UniProt P10636, sequence (whole entry, looked up): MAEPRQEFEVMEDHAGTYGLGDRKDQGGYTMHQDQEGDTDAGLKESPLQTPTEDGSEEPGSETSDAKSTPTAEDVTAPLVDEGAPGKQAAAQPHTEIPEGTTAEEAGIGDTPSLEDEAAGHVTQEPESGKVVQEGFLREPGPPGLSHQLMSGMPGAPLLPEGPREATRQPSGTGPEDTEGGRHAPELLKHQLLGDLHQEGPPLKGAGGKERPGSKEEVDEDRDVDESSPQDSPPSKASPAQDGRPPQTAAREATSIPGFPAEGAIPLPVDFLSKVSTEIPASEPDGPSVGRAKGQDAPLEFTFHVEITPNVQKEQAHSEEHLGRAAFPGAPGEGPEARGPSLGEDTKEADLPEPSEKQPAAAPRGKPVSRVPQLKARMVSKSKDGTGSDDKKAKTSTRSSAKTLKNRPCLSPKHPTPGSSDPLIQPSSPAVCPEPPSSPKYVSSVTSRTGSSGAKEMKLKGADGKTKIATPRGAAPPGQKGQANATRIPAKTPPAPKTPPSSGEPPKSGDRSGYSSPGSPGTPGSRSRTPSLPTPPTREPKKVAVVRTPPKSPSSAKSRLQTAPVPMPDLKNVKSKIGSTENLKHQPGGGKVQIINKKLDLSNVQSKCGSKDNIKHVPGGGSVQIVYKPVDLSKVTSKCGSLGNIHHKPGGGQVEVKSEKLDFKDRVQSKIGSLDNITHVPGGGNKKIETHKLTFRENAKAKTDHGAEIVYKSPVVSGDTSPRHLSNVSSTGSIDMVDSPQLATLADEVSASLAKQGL
# UniProt P00388, sequence (whole entry, unmodified, looked up): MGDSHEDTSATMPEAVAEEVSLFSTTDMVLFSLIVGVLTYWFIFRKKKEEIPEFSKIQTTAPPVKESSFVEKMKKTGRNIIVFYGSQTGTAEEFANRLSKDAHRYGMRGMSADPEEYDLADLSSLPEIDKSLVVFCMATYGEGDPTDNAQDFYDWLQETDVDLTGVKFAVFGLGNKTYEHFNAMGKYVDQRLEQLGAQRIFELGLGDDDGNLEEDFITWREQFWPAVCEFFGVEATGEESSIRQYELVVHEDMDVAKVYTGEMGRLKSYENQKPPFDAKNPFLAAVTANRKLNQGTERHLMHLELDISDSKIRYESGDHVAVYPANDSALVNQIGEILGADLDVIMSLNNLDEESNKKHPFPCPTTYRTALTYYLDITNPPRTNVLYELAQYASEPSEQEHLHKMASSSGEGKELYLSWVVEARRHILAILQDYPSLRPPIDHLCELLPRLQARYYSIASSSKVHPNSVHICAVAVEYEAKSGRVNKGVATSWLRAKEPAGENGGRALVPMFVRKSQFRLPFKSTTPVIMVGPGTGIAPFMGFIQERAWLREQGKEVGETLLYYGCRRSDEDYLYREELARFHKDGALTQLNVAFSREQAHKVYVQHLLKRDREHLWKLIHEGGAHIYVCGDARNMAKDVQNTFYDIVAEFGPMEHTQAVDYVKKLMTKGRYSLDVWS
# UniProt P15823, sequence (whole entry, looked up): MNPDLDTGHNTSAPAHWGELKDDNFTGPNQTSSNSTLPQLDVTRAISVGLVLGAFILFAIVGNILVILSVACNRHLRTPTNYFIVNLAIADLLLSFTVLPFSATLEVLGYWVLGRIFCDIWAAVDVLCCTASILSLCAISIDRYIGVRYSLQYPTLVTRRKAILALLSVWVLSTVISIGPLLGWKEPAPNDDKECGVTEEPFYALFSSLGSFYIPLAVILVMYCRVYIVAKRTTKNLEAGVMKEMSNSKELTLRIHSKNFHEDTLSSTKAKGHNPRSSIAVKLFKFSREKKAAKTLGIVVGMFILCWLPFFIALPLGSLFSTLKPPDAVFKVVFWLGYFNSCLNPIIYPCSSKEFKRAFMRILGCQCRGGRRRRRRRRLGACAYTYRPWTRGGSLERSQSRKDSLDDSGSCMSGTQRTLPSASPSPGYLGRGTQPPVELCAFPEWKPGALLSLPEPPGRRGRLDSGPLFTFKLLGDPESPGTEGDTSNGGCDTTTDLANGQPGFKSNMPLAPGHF
# UniProt O76083, sequence (whole entry, looked up): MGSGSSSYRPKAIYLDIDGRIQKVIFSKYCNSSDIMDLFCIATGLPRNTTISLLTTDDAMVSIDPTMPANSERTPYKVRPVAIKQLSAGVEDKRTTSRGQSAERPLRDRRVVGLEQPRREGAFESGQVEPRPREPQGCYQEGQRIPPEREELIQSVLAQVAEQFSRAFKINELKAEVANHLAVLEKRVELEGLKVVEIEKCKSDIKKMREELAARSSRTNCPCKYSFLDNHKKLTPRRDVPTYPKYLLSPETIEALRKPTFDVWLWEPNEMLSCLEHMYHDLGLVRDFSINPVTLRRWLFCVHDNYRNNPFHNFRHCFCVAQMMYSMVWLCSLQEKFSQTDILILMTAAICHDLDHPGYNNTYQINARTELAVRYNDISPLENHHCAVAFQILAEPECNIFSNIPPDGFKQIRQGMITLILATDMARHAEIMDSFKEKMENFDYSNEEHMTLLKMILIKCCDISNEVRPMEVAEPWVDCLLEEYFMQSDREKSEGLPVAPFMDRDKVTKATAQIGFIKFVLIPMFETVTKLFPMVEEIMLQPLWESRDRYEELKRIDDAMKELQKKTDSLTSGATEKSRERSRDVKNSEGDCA
Structure (SMILES),target or system,test,test system,setting,how to read,quantity,value
Cc1ccc([C@H]2C[C@@H]2COc2cc(NCc3nnc(C)s3)nc(C)n2)nc1,"PDE9A (Homo sapiens, UniProt O76083)","enzyme activity, inhibitor, IMAP fluorescence polarization",,with: cGMP,,Ki,> 54.6 µM
Cn1cc(-c2ccc(-c3cncc(Cl)c3N3CCC4(CCNC4=O)CC3)cc2)cn1,COLO 205,"gene expression, microarray, item: VAV3 mRNA",,"concentration not given, 2 h",reference: untreated cells,log2 fold change,-2.03
CCCCCCCCC,uncharacterized protein,"binding, competitive fluorescence displacement",,,,Ki,> 50 µM
CC[C@H]1OC(=O)[C@H](C)[C@@H](O[C@H]2C[C@@](C)(OC)[C@@H](O)[C@H](C)O2)[C@H](C)[C@@H](O[C@@H]2O[C@H](C)C[C@H](N(C)C)[C@H]2O)[C@](C)(O)C[C@@H](C)C(=O)[C@H](C)[C@@H](O)[C@]1(C)O,Alpha-1-acid glycoprotein 2,"competitive inhibitor, ultrafiltration",,"15 min, 37 °C, with: [3H]S-disopyramide",,Ki,24.5 µM
C[C@H]1c2nn(C)cc2[C@H]2C[C@@H]1N(Cc1ccccc1)C[C@]2(C)O,SIGMAR1,,,,,Ki,4.2 µM
CSc1ccc2c(c1)N(CCC1CCCCN1C)c1ccccc1S2 (centres unmarked),Alpha-1-acid glycoprotein 2,"competitive inhibitor, ultrafiltration",,"15 min, 37 °C, with: [3H]S-disopyramide",,Ki,0.81 µM
O=C(c1ccc(CNCCCN2CCN(C3CCCCC3)CC2)cc1)c1ccc([N+](=O)[O-])cc1,TMEM97,radioligand binding,RT-4 cell membranes,"with: 10 nM [3H]-DTG, 100 nM (+)-pentazocine",,Ki,0.0333 µM
CCCCC(C)=O,uncharacterized protein,"binding, competitive fluorescence displacement",,,,Ki,> 50 µM
Cc1ccc2oc(=O)cc(NCCO)c2c1,"Adra1b (Rattus norvegicus, UniProt P15823)",,,,,Ki,63.1 µM
Fc1ccc(-c2ccc3c(n2)[nH]c2ccncc23)s1,MAPT PSP brain aggregates,binding,PSP human brain tissue,with: [3H]PI-2620,,Ki,< 0.01 µM and 0.0082 µM
COc1cc2c(cc1OC)CN(C(C)CCc1ccc(O)cc1)CC2 (centres unmarked),SIGMAR1,"binding, [3H](+)-pentazocine displacement",guinea pig brain homogenate,,,Ki,0.108 ± 0.035 µM
COC(=O)C1=C(C)NC(C)=C(C(=O)O[C@H]2CCN(Cc3ccccc3)C2)[C@H]1c1cccc([N+](=O)[O-])c1,Alpha-1-acid glycoprotein 2,"competitive inhibitor, ultrafiltration",,"15 min, 37 °C, with: [3H]S-disopyramide",,Ki,12.7 µM
CCCCCCCC=O,uncharacterized protein,"binding, competitive fluorescence displacement",,,,Ki,> 50 µM
Fc1ncccc1-c1cc2[nH]c3ccncc3c2cn1,MAPT PSP brain aggregates,binding,PSP human brain tissue,with: [3H]PI-2620,,Ki,< 0.01 µM and 0.0071 µM
c1ccc2[nH]ccc2c1,uncharacterized protein,"binding, competitive fluorescence displacement",,,,Ki,> 50 µM
NC(=O)c1ccc[n+]([C@@H]2O[C@H](COP(=O)(O)OP(=O)(O)OC[C@H]3O[C@@H](n4cnc5c(N)ncnc54)[C@H](OP(=O)(O)O)[C@@H]3O)[C@@H](O)[C@H]2O)c1,"NADPH--cytochrome P450 reductase (Rattus norvegicus, UniProt P00388, W677G)","cytochrome c reduction, inhibitor",,with: NADPH,,Ki,3.75 ± 0.37 µM
Cc1ccc(C(C)C)cc1O,uncharacterized protein,"binding, competitive fluorescence displacement",,,,Ki,> 50 µM
O=c1n(CCCN2CCN(c3cccc(Cl)c3)CC2)nc2ccccn12,TMEM97,,,,,Ki,> 10 µM
Clc1ccc(COC(Cn2ccnc2)c2ccc(Cl)cc2Cl)c(Cl)c1 (centres unmarked),Alpha-1-acid glycoprotein 2,"competitive inhibitor, ultrafiltration",,"15 min, 37 °C, with: [3H]S-disopyramide",,Ki,19 µM
C=CC(C)(O)CCC=C(C)C (centres unmarked),uncharacterized protein,"binding, competitive fluorescence displacement",,,,Ki,> 50 µM
Fc1cc(-c2ccc3c(n2)[nH]c2ccncc23)ccn1,"Microtubule-associated protein tau, AD brain aggregates (MAPT, Homo sapiens, UniProt P10636)",,Alzheimer's disease brain homogenate,with: [3H]asyn-44,,Ki,> 10 µM
CCCCCCC=O,uncharacterized protein,"binding, competitive fluorescence displacement",,,,Ki,> 50 µM
O=C(CN(CCCCI)CCCN1CCN(C2CCCCC2)CC1)Nc1ccc(C(=O)c2ccccc2)cc1,TMEM97,radioligand binding,RT-4 cell membranes,"with: 10 nM [3H]-DTG, 100 nM (+)-pentazocine",,Ki,0.0447 µM

# Some of these lines once more:
Structure (SMILES),target or system,test,test system,setting,how to read,quantity,value
CCCCCCCC=O,uncharacterized protein,"binding, competitive fluorescence displacement",,,,Ki,> 50 µM
Fc1ncccc1-c1cc2[nH]c3ccncc3c2cn1,MAPT PSP brain aggregates,binding,PSP human brain tissue,with: [3H]PI-2620,,Ki,< 0.01 µM and 0.0071 µM
c1ccc2[nH]ccc2c1,uncharacterized protein,"binding, competitive fluorescence displacement",,,,Ki,> 50 µM
